Assay results gathered from unrelated publications.
A part holds a random share of what one study measured.

Block 1
Target: Histone acetyltransferase KAT6A, winged helix 1, GST fusion (KAT6A, Homo sapiens, UniProt Q92794, residues 1-85)
Technique: protein binding microarray
Molecule type: double-stranded DNA, one strand shown
Matrix: in vitro
Tested at: not given
Setting: 8-mer, flanks averaged, mean of 2 arrays, mostly near background
Relative to: not given
Direction: higher = stronger binding
Quantity: E-score
Construct (chain): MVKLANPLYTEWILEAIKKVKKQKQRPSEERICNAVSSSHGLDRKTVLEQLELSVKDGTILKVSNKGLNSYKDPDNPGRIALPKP
Oligonucleotide = GAGACCCC; value = 0.00805
Oligonucleotide = AATTGCTA; value = -0.0049
Oligonucleotide = AATACTGG; value = -0.247
Oligonucleotide = GCTCACCA; value = -0.033
Oligonucleotide = GCCCAGGC; value = -0.02
Oligonucleotide = AGCGAGCC; value = 0.168
Oligonucleotide = CAAATTTG; value = -0.186
Oligonucleotide = TCCAGCCA; value = -0.163
Oligonucleotide = GGCGTGAC; value = 0.121
Oligonucleotide = AGACTCGG; value = 0.0175
Oligonucleotide = ATATGTCA; value = -0.0799
Oligonucleotide = CAGTGGCG; value = 0.0156
Oligonucleotide = CCCGTAGC; value = 0.353
Oligonucleotide = GCAATCAC; value = 0.00327
Oligonucleotide = GCACTGCA; value = -0.177
Oligonucleotide = GGAATATA; value = -0.0326
Oligonucleotide = GTGACAAC; value = -0.0758
Oligonucleotide = AGTCAAAA; value = -0.2
Oligonucleotide = TGCTGCCA; value = -0.145
Oligonucleotide = ACCCACTA; value = -0.115
Oligonucleotide = CCATATTC; value = -0.148
Oligonucleotide = CGCGGTTC; value = 0.4
Oligonucleotide = CAATGGAC; value = -0.12
Oligonucleotide = AGGTTATG; value = -0.0965
Oligonucleotide = GCCCCACC; value = 0.0403

Block 2
Target: RNA binding protein fox-1 homolog 2, RRM domain, GST-SBP tag (RBFOX2, Homo sapiens, UniProt O43251-10, residues 100-194)
Technique: RNA Bind-n-Seq
Molecule type: RNA
Matrix: in vitro
Tested at: 365 nM
Setting: natural RNA segment, single round, ends assumed
Relative to: no-protein control
Direction: higher = stronger binding
Quantity: RBNS enrichment (R)
Constant ends, left off below: GGGAGUUCUACAGUCCGACGAUC … UGGAAUUCUCGGGUGCCAA
Residues (chain): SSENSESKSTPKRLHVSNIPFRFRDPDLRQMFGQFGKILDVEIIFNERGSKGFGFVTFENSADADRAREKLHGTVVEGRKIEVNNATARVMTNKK
Oligonucleotide = CUAAAUUAGCAUCAAUACUUUGACAUUCAUUACAUUGGUUUGGGGGAAGAAAAGUAGUUCUGGUAUGUUUCAUUGAUCCCCAGAUACCUUCCAAUCUGGACAUGAUGGGG; value = 1.4
Oligonucleotide = UUUCUCCUGGAGCAUGUGCAGAGAGUUUGGCAACGUUCGCUCUCUUGACCAGACCCCUUCUCCCUGACCUGGCUCUUCCAGCCAGGGCACGAGCCCUCCUUCUAUACCUG; value = 8.55
Oligonucleotide = GCUCCUUGAGAGCAGGAUCCAUGUCAUUCCUUUAUUUUUAUAAAUUAUUCCCCCUAUCAUUCCUUUACAGUGCCUAGUGCUACUCAUUAUGUGUUCAUUGAAUUUGACUG; value = 0.67
Oligonucleotide = GGGGAAGACGAUUAACACACCUCUUACAGUAAUACUGCCUGUUAUUGGUAUAGCAGUGGUAUUUGCAGACUGGGAUCAUAAGGAGCCCUUAAAUACUUGUUAUUGACUGG; value = 0.289
Oligonucleotide = GGGGCUUCCUUGGGACCAGUGCAAGGAAGUUCUGCUGUCCCUGGGAAGUCUCAGAACCAGGAAGGAAACCCUGUGGAGGCUGCCCUUUGACCUUUGGACGCCACCUGUAA; value = 0.382
Oligonucleotide = AAGUACCAGGUCAUGUCCAUCCCUUGGUACAUAUAUGCAUUUGCUUUUAAACCAUUUCUUUUGUUUAAAUAAAUAAAUAAGUAAAUAAAGCUAGUUCUAUUGAAAUGCAA; value = 0.776
Oligonucleotide = AUCUGAAUUUCAGAUUCAGAUCAGGCAUUGGCUGUAAAGUCUACCACGAAGUCCCAAUCUACCCUUCCCUCAACCUCUUUCUCAAGGAGGAAACUCCCCACCUCACCCUG; value = 0.7
Oligonucleotide = CCCGUCCUGGCUAUGAAACCUUGUGAGCAGAAGGCAAGAGCGGCAAGAUGAGUUUUGAGCGUUGUAUUCCAAAGGCCUCAUCUGGAGCCUCGGGAAAGUCUGGUCCCACA; value = 0.34

Block 3
Target: Interferon regulatory factor 5, full length, phosphomimetic (IRF5, Homo sapiens, UniProt Q13568-2, residues 1-514, K96S/S451D/S453D/S456D/S462D)
Technique: protein-binding microarray
Molecule type: double-stranded DNA, one strand shown
Matrix: in vitro
Tested at: 250 nM
Setting: 60-bp whole probe
Together with: salmon DNA 0.4 mg/ml
Relative to: random background probes
Direction: higher = stronger binding
Quantity: log fluorescence
Constant ends, left off below: GCCTAGCAC … GTCTTGATTCGCTTGACGCTGCTG
Oligonucleotide = GACGGTATCGTCACTGGGGACGTGCTA; value = 0.537 z-score
Oligonucleotide = TTAGGTAGCGACACTGGGTTAGTGCTA; value = -0.0446 z-score
Oligonucleotide = TCACCAATGGTCTTTCCAACTGTGCTA; value = 0.0979 z-score
Oligonucleotide = TCTACTGTCTGTTTCCTCTTGTGCTAG; value = 0.937 z-score
Oligonucleotide = TTAGATCTCTGTTTCGATTAGTGCTAG; value = 7.84 z-score
Oligonucleotide = GACGATTTCGGGACTGGAGCCGTGCTA; value = 1.51 z-score
Oligonucleotide = TTAGGTTTCGATTATCGGTTAGTGCTA; value = 10.2 z-score
Oligonucleotide = GACGGACTGGGTTTCCGGACGTGCTAG; value = -0.389 z-score
Oligonucleotide = GACGGCCTGGACACTGGGGACGTGCTA; value = -0.657 z-score
Oligonucleotide = TCAAATTTTGTCATCTAACTGTGCTAG; value = 0.632 z-score
Oligonucleotide = TCAACTCTCTAATTTTGAGAGTGCTAG; value = 0.391 z-score
Oligonucleotide = GACGATATCAGACTGGAGATGTGCTAG; value = 0.332 z-score
Oligonucleotide = GACGGTTTCGACCCTGGGGACGTGCTA; value = 3.72 z-score
Oligonucleotide = GGGATGGTGGGGCTCCTCCTGTGCTAG; value = -0.486 z-score
Oligonucleotide = GACAGTATCGGGACTGGGGACGTGCTA; value = 2.47 z-score
Oligonucleotide = GCCGGTTTCGGTCTCGGGACGTGCTAG; value = 10.2 z-score
Oligonucleotide = GACGACCTGGGGTTTCGAGACGTGCTA; value = 0.777 z-score
Oligonucleotide = TTAGGTTTCGCCTTTCGGTTAGTGCTA; value = 9.01 z-score
Oligonucleotide = TCATGTCTGGGATGTAATACTGTGCTA; value = 0.102 z-score

Block 4
Target: Centromere-binding protein 1, full length, N-terminal tag (CBF1, Saccharomyces cerevisiae, UniProt P17106, residues 1-351)
Sequence of UniProt P17106 (whole entry, looked up): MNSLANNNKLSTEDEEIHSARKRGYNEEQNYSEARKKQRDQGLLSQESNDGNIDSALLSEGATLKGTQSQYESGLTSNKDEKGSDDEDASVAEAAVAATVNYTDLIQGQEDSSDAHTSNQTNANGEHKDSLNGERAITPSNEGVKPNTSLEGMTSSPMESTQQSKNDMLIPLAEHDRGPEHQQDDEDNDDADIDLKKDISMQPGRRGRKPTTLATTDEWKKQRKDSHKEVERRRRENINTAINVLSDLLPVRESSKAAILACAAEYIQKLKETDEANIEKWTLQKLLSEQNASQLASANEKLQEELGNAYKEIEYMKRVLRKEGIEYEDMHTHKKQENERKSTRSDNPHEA
Technique: protein-binding microarray
Molecule type: double-stranded DNA, one strand shown
Matrix: in vitro
Tested at: 0.8 µM
Setting: whole 60-bp probe, no competitor
Direction: higher = stronger binding
Quantity: fluorescence intensity
Constant ends, left off below: … GTCTTGATTCGCTTGACGCTGCTG
Oligonucleotide = CTACTGCTCTCGCTCCACGTTGTCATCCCACCCTTC; value = 689 a.u.
Oligonucleotide = CTATTAACAAGAAACGTGATGGTACACACAAAGTTC; value = 1510 a.u.
Oligonucleotide = GAAACACGGGCGGCATTCGTGATGACAATAGATTAG; value = 541 a.u.
Oligonucleotide = CTACCAACAAATCATCAGGTTAGTAGAATAATGTTC; value = 519 a.u.
Oligonucleotide = GAAAAATCATTATGGTGCATGATGCATCACTTATAG; value = 516 a.u.
Oligonucleotide = GAACTCTTCAATCCTAACATCAGTAATGCTTTTTAG; value = 536 a.u.
Oligonucleotide = GAACTTATAAATGCGCACGTATTATTTTCATTTTAG; value = 546 a.u.
Oligonucleotide = GAAAAAATTGACCTGCACATGGAGAAAGCGTAATAG; value = 601 a.u.
Oligonucleotide = GAAAAAAGTTCAAAACATGTGGAACGGGTAACATAG; value = 576 a.u.
Oligonucleotide = CTAATGTCAAAAAATCTCGTGAGGCCTCCGGAATTC; value = 537 a.u.
Oligonucleotide = CTATATAGAAGTGACAACGTGTTTTTTCGTTTTTTC; value = 592 a.u.
Oligonucleotide = CTATCATGCATACTTCATCTGACCAATATATTTTTC; value = 685 a.u.
Oligonucleotide = GAATGTGGAGCAAGCCACGCCATGTGATTAACCTAG; value = 2540 a.u.
Oligonucleotide = CCTAACTACTATAGTCACATGCGATAGCTTCGTACA; value = 2190 a.u.
Oligonucleotide = GAATGTTTAATATGGCACGTCGCCTCATTCAAATAG; value = 951 a.u.
Oligonucleotide = CTAAAGTAAACTTCTCACCTGTAAATACTAGTATTC; value = 516 a.u.
Oligonucleotide = GAACCTCTTGCTGTCCACATGTGTTGAGTGTCATAG; value = 782 a.u.
Oligonucleotide = CTAATATATGAGGAATACGGGTCACCACACTAATTC; value = 673 a.u.
Oligonucleotide = CTAACCTTTGTGATTCACGCTGTCCTCGTGAAATTC; value = 645 a.u.

Some of these lines once more (block 4):
Oligonucleotide = CTATCATGCATACTTCATCTGACCAATATATTTTTC; value = 685 a.u.
Oligonucleotide = GAAAAAATTGACCTGCACATGGAGAAAGCGTAATAG; value = 601 a.u.
Oligonucleotide = GAAACACGGGCGGCATTCGTGATGACAATAGATTAG; value = 541 a.u.
Oligonucleotide = CTACTGCTCTCGCTCCACGTTGTCATCCCACCCTTC; value = 689 a.u.
Oligonucleotide = CTATATAGAAGTGACAACGTGTTTTTTCGTTTTTTC; value = 592 a.u.
Oligonucleotide = GAACCTCTTGCTGTCCACATGTGTTGAGTGTCATAG; value = 782 a.u.
